Measured values of several laboratories.
“And” joins repeats or separate records; there may be more than shown. Numbers after ± are the reported error.
odorant-binding protein 24: odorant-binding protein 24 (Monochamus alternatus, UniProt A0A1I9HZN3)
HRH4: Histamine H4 receptor (HRH4, Homo sapiens, UniProt Q9H3N8)
Chain of UniProt Q9H3N8 (whole entry, looked up): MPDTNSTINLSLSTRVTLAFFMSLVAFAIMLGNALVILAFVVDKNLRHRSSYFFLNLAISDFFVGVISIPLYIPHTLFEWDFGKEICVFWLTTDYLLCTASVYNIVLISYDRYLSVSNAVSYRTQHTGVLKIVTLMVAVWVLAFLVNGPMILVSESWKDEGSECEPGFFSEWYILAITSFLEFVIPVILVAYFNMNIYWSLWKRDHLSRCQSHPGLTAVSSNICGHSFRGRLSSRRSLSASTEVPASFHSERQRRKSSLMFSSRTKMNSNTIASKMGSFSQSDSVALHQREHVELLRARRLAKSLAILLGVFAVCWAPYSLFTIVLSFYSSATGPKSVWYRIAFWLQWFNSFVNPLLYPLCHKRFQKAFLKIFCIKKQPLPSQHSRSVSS
LRRK2 G2019S: Leucine-rich repeat serine/threonine-protein kinase 2 (LRRK2, Homo sapiens, UniProt Q5S007, G2019S)
SNCA fibrils: Alpha-synuclein, fibrils (SNCA, Homo sapiens, UniProt P37840)
Adcy2/ADCY5 C1/C2 domains: Adcy2/ADCY5, C1/C2 domains (Rattus norvegicus, UniProt P26769+P30803)
Chain of UniProt P30803 (whole entry, looked up): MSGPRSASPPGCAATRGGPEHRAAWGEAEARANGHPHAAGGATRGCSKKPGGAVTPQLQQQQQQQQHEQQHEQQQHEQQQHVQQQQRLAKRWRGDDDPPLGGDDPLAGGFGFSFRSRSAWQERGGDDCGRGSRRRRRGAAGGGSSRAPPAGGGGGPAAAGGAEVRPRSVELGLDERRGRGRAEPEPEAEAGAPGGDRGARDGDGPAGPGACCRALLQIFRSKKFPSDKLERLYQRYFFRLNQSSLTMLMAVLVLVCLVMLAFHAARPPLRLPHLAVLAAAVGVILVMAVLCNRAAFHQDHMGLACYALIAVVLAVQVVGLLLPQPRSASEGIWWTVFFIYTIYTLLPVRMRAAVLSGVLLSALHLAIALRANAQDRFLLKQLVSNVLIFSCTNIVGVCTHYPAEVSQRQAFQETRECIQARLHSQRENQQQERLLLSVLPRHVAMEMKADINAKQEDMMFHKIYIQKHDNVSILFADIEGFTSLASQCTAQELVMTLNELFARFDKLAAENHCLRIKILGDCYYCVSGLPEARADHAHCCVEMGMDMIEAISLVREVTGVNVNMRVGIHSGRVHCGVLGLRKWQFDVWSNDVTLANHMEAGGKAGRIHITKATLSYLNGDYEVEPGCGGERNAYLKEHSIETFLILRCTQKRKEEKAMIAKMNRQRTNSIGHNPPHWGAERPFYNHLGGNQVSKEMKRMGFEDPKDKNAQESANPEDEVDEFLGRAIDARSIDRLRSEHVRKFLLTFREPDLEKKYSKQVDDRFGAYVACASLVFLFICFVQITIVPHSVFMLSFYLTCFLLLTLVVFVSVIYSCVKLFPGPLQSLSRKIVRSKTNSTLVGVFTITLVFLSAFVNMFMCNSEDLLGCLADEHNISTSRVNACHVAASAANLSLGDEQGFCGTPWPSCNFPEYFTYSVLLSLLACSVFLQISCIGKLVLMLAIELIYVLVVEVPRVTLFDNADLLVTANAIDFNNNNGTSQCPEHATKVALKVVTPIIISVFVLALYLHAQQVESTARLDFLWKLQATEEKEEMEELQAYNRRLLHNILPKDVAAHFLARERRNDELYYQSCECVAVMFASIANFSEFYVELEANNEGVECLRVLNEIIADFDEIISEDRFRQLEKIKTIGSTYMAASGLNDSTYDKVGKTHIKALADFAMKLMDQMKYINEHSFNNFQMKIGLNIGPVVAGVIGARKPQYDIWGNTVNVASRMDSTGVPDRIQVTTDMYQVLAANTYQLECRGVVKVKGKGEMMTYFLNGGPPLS
Chain of UniProt P26769 (whole entry, looked up): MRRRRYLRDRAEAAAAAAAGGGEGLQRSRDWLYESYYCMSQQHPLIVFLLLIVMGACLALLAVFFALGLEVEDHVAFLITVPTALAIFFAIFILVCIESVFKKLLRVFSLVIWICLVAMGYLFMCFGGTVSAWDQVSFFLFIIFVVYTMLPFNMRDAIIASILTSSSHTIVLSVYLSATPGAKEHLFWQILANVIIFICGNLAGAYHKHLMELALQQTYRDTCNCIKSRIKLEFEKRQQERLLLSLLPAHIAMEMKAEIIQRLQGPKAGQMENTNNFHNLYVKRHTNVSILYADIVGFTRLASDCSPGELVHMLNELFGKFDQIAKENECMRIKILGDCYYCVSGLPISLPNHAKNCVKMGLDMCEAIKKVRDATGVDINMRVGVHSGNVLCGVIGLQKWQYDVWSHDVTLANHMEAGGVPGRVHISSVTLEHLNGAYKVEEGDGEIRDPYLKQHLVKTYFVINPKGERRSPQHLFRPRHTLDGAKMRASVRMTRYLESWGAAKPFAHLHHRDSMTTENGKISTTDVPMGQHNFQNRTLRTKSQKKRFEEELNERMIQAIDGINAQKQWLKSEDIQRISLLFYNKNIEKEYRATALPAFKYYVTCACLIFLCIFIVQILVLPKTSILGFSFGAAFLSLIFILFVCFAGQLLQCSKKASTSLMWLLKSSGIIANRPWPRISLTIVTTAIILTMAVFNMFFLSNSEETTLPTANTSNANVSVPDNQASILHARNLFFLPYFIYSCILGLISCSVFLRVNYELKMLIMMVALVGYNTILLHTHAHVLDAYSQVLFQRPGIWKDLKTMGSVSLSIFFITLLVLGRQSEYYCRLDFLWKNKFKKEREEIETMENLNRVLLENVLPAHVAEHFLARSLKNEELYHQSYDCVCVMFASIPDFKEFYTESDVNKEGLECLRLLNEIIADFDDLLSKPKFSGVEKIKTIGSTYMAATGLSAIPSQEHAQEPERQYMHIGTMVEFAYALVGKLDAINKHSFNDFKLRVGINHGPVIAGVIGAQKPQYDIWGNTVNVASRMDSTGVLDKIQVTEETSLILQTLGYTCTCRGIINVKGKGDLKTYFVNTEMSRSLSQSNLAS
OGG1: N-glycosylase/DNA lyase (OGG1, Homo sapiens, UniProt O15527)
Chain of UniProt O15527 (whole entry, looked up): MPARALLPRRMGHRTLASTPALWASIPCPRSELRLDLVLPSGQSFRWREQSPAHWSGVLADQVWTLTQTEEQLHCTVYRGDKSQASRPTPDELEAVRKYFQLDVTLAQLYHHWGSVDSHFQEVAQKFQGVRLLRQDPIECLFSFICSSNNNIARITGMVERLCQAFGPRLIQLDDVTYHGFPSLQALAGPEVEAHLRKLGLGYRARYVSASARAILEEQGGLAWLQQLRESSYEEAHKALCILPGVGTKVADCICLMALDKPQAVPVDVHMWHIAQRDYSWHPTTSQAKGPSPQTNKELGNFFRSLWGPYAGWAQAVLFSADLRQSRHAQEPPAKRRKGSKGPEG
Mapk1: Mitogen-activated protein kinase 1 (Mapk1, Rattus norvegicus, UniProt P63086)
Chain of UniProt P63086 (whole entry, looked up): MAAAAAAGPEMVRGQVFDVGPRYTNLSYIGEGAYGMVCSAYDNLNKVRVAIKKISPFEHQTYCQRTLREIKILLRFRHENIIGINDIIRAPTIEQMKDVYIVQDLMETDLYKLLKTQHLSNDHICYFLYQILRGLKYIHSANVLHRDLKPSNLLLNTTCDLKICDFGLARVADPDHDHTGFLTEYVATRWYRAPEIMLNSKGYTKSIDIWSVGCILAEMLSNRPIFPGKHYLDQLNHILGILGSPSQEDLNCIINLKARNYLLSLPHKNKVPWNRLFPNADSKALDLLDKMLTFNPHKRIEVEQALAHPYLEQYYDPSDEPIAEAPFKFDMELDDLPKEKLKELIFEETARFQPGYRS
SLC18A3: Vesicular acetylcholine transporter (SLC18A3, Homo sapiens, UniProt Q16572)
Chain of UniProt Q16572 (whole entry, looked up): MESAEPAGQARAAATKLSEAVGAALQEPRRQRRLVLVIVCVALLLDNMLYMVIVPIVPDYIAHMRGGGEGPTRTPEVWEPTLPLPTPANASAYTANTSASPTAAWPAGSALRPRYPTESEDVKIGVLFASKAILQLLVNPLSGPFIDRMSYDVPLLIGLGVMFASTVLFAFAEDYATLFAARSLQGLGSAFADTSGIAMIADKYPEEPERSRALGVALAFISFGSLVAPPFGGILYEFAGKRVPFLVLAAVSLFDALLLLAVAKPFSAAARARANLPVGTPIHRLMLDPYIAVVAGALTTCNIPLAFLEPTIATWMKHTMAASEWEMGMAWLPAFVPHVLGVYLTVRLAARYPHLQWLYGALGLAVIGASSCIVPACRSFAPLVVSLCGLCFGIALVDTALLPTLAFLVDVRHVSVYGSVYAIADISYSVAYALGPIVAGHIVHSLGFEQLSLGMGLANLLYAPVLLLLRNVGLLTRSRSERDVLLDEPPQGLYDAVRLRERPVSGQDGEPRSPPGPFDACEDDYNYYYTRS
Chain of UniProt P45983 (whole entry, looked up): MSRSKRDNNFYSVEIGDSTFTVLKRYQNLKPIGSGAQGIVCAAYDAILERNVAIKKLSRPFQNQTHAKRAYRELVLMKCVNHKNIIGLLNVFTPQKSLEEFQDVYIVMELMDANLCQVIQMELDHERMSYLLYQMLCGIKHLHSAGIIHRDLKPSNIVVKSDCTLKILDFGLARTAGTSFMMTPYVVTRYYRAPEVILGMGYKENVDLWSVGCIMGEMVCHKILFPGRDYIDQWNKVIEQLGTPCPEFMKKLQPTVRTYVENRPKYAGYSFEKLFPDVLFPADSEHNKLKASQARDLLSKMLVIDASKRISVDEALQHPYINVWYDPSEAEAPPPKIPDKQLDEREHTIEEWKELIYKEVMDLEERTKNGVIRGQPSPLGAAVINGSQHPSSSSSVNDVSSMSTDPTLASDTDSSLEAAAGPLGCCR
Chain of UniProt Q4U2R8 (whole entry, looked up): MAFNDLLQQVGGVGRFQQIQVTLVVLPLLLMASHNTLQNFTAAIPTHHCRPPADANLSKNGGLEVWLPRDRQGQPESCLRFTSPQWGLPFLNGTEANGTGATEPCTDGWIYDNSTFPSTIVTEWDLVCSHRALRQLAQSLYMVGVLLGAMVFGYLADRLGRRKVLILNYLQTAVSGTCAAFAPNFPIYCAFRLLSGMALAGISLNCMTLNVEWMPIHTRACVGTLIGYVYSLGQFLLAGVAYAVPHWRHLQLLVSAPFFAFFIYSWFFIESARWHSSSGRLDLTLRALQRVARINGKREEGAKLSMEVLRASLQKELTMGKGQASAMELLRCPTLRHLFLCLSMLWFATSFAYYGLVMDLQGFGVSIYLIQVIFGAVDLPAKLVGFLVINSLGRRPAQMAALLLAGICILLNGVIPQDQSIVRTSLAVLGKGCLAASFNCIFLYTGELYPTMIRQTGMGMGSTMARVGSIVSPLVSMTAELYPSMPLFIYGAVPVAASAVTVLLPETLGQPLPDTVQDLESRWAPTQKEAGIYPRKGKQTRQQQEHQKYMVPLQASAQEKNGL

Substance | target | assay | system | setting | Ki
C=C(C)[C@H]1CC=C(C)CC1 | odorant-binding protein 24 | competitive fluorescence binding | – | pH 7.4, added: 1-NPN | > 50 µM
Cc1cccc(NC(=O)c2ccc(F)c(F)c2)n1 | mGluR5 | binding | HEK293T cell membranes, transfected | – | > 10 µM
N=C(NCCCCN)NCCCc1c[nH]cn1 | HRH4 | ligand displacement, radioligand | – | cell membranes | 0.339 µM
Nc1ncnc2c1ncn2[C@@H]1O[C@H](COP(=O)(O)OP(=O)(O)NP(=O)(O)O)[C@@H](O)[C@H]1O | LRRK2 G2019S | kinase activity, inhibitor, TR-FRET | – | Ki,e, added: PLK peptide substrate, ATP varied | 400 ± 200 µM
COc1ccc(/C=C/C(=O)c2nccs2)cc1 | SNCA fibrils | fibril binding, thioflavin T competition | – | 1 µM fibrils, added: thioflavin T 3 µM | 0.053 ± 0.0198 µM
COC(=O)C1(C)C=CC(=O)CC1 (centres unmarked) | Mitogen-activated protein kinase 8 (MAPK8, Homo sapiens, UniProt P45983) | ligand displacement, FP | – | – | > 200 µM
Nc1ncnc2c1ncn2[C@@H]1O[C@H](COP(=O)(O)OP(=O)(O)O)[C@@H](O)[C@H]1O | LRRK2 G2019S | kinase activity, inhibitor, radiometric | – | Ki,e, variable ATP | 100 ± 20 µM
O=c1ccn([C@H]2C[C@H](O)[C@@H](CO)O2)c(=O)[nH]1 | P1-type nucleoside transporter | thymidine uptake, inhibitor | Trypanosoma brucei brucei, bloodstream form | 15 min, added: [3H]-thymidine | 320 ± 60 µM
N=C(N)NCCCCCCCCNC(=N)NCCCc1cnc(N)s1 | HRH4 | ligand displacement, radioligand | – | cell membranes | 2.4 µM
CN(C)c1ccc(/C=C/C(=O)c2nccs2)cc1 | SNCA fibrils | fibril binding, thioflavin T competition | – | 1 µM fibrils, added: thioflavin T 3 µM | 0.096 µM and 0.0955 µM
CC1=CC[C@@H]2[C@@H]3[C@H]1[C@@]2(C)CCCC3(C)C | odorant-binding protein 24 | competitive fluorescence binding | – | pH 7.4, added: 1-NPN | 44.8 ± 7.23 µM
Br | trans-3-chloroacrylic acid dehalogenase (Pseudomonas pavonaceae, UniProt Q9EV84+Q9EV85) | – | – | – | ~10000 µM
N=C(NCCCCNC(N)=O)NCCCc1c[nH]cn1 | HRH4 | ligand displacement, radioligand | – | cell membranes | 0.257 µM
NC[C@@H]1O[C@H](c2ccccc2)Cc2c1ccc(O)c2O | D(1A) dopamine receptor (Sus scrofa, UniProt P50130) | binding, radioligand competition binding | porcine striatal homogenate | added: 1 nM [3H]SCH-23390 | 0.0026 ± 0.00027 µM
COc1ccc(C(=O)/C=C/c2ccccc2)c(O)c1 | GABA-A receptor benzodiazepine site (rat) | binding | rat cerebral cortex membranes | added: [3H]flunitrazepam | 9 ± 1.2 µM
O=C(/C=C/c1ccc([N+](=O)[O-])cc1)c1nccs1 | SNCA fibrils | fibril binding, thioflavin T competition | – | 1 µM fibrils, added: thioflavin T 3 µM | 0.192 ± 0.0035 µM
(+)-α-pinene | odorant-binding protein 24 | competitive fluorescence binding | – | pH 5, added: 1-NPN | 34 ± 7.02 µM
O=c1[nH]cnc2c1ncn2[C@@H]1O[C@H](CO)[C@@H](O)[C@H]1O | Trichomonas vaginalis nucleoside transporter | inhibitor | trophozoites, Trichomonas vaginalis | high-affinity component, added: [3H]-guanosine | 6.3 ± 2.6 µM
OC1CCCc2ccc(OCc3ccc(Cl)cc3)cc21 (centres unmarked) | Amine oxidase [flavin-containing] A (MAOA, Homo sapiens, UniProt P21397) | enzyme activity, inhibitor | – | – | 1 µM
CSC(=N)NCCCc1c[nH]cn1 | HRH4 | ligand displacement, radioligand | – | cell membranes | 0.00724 µM
CNc1ccccc1C(=O)O[C@H]1C[C@H](n2cnc3c(=O)[nH]c(N)nc32)O[C@@H]1COP(=O)(O)OP(=O)(O)OP(=O)(O)O | Adcy2/ADCY5 C1/C2 domains | adenylyl cyclase activity, inhibitor, purified enzyme | – | added: 10 mM MnCl2, 100 µM forskolin, no Gsα-GTPγS | 0.89 ± 0.18 µM

Substance | target | assay | system | setting | Ki
Nc1ccn([C@H]2C[C@H](O)[C@@H](COP(=O)(O)O)O2)c(=O)n1 | OGG1 | 8-oxoguanine excision, competitive inhibitor | – | pH 7.5, 37 °C, substrate at 2 × Km, added: 22 nM oxoguanine duplex DNA | 9400 µM
Nc1nc(Cl)nc2c1ncn2[C@H]1C[C@H](O)[C@@H](COP(=O)(O)OP(=O)(O)O)O1 | Ribonucleoside-diphosphate reductase large subunit (Homo sapiens, UniProt P23921) | CDP reductase activity, inhibitor | – | 3 min, apparent Ki, added: CDP substrate, ATP effector | 1.4 ± 0.7 µM
N=C(N)NCCCCCCNC(=N)NCCCc1c[nH]cn1 | HRH4 | ligand displacement, radioligand | – | cell membranes | 0.24 µM
CC(=O)N[C@@H](Cc1ccc(O)cc1)C(=O)N[C@@H](C)C(=O)N1CCC[C@H]1C(=O)N[C@@H](CCCNC(=N)N)C(=O)N[C@@H](C)C(=O)N1CCC[C@H]1C(=O)N[C@@H](C)C(=O)N[C@@H](CCCCN)C(=O)N[C@@H](CC(C)C)C(=O)N[C@@H](C)C(=O)N[C@@H](Cc1ccccc1)C(=O)N[C@@H](CCC(N)=O)C(=O)N[C@@H](Cc1ccccc1)C(=O)N1CCC[C@H]1C(=O)N[C@@H](CO)C(=O)N[C@@H](CCCNC(=N)N)C(N)=O | Mapk1 | noncompetitive component | – | added: substrate Sub-F 15 µM, varied MgATP | 81 ± 10 µM
Nc1ncnc2c1ncn2[C@@H]1O[C@H](CO)[C@@H](O)[C@H]1O | P1-type nucleoside transporter | thymidine uptake, inhibitor | Trypanosoma brucei brucei, bloodstream form | 15 min, added: [3H]-thymidine | 2.3 ± 0.3 µM
CS(N)(=O)=O | Neutral amino acid transporter B(0) (Slc1a5, Rattus norvegicus, UniProt D3ZJ25) | leak anion current, inhibitor, whole-cell patch clamp | HEK293 | 0 mV, no external alanine, 140 mM NaCl external, SCN- internal | 919 ± 174 µM
Nc1ncnc2c1ncn2[C@@H]1O[C@H](COP(=O)(O)OP(=O)(O)O)[C@@H](O)[C@H]1O | Mapk1 | kinase activity, noncompetitive inhibitor | – | added: Sub-F substrate varied, MgATP 1 mM | 808 ± 78 µM
Cc1ccc(O)c(C(=O)/C=C/c2ccccc2)c1 | GABA-A receptor benzodiazepine site (rat) | binding | rat cerebral cortex membranes | added: [3H]flunitrazepam | 6.1 µM and ~6 µM and < 6 µM
O=c1[nH]cc(F)c(=O)[nH]1 | P1-type nucleoside transporter | thymidine uptake, inhibitor | Trypanosoma brucei brucei, bloodstream form | 15 min, added: [3H]-thymidine | > 1000 µM
O=C(c1ccc(S(=O)(=O)CCCF)cc1)C1CCN(C2Cc3ccccc3CC2O)CC1 (racemic) | SLC18A3 | ligand displacement, radioligand | – | – | 0.0128 µM
CCCn1c(=O)n(CCCCN2CCN(c3ccc(F)cc3)CC2)c2ccccc21 | rat opioid receptors | – | rat brain membranes | added: [3H]bremazocine | > 10 µM
Nc1nc2c([nH]c(=O)n2[C@H]2C[C@H](O)[C@@H](COP(=O)(O)O)O2)c(=O)[nH]1 | OGG1 | 8-oxoguanine excision, competitive inhibitor | – | pH 7.5, 37 °C, substrate at 2 × Km, added: 22 nM oxoguanine duplex DNA | 1600 µM
N=C(NCCCCCCCCCCCCN)NCCCc1cnc(N)s1 | HRH4 | ligand displacement, radioligand | – | cell membranes | 22.4 µM
O=C(O[C@@H]1Cc2c(O)cc(O)cc2O[C@@H]1c1cc(O)c(O)c(O)c1)c1cc(O)c(O)c(O)c1 | Solute carrier family 22 member 6 (SLC22A6, Homo sapiens, UniProt Q4U2R8) | transporter uptake, inhibitor | – | – | 334 µM
(+)-fenchone | odorant-binding protein 24 | competitive fluorescence binding | – | pH 5, added: 1-NPN | 32 ± 3.3 µM
CSc1ccc(C(=O)C2CCN(C3Cc4ccccc4CC3O)CC2)cc1 (racemic) | SLC18A3 | ligand displacement, radioligand | – | – | 0.0024 µM
N=C(NCCCCCCCCNC(N)=O)NCCCc1c[nH]cn1 | HRH4 | ligand displacement, radioligand | – | cell membranes | 0.275 µM
CC(=O)N[C@@H](Cc1ccccc1)C(=O)N[C@@H](CCC(N)=O)C(=O)N[C@@H](CCCNC(=N)N)C(=O)N[C@@H](CCCCN)C(=O)N[C@H](C(=O)N[C@@H](CC(C)C)C(=O)N[C@@H](CCC(N)=O)C(=O)N[C@@H](CCCNC(=N)N)C(=O)N[C@@H](CCCNC(=N)N)C(=O)N[C@@H](CC(N)=O)C(=O)N[C@@H](CC(C)C)C(=O)N[C@@H](CCCCN)C(=O)NCC(=O)N[C@@H](CC(C)C)C(=O)N[C@@H](CC(N)=O)C(=O)N[C@@H](CC(C)C)C(=O)N[C@@H](CC(N)=O)C(=O)N[C@@H](CC(C)C)C(N)=O)[C@@H](C)O | Mapk1 | noncompetitive component | – | added: substrate Sub-D 20 µM, varied MgATP | 108 ± 8 µM
N=C(N)NCCCCCCCCNC(=N)NCCCc1c[nH]cn1 | HRH4 | ligand displacement, radioligand | – | cell membranes | 0.145 µM
CNc1ccccc1C(=O)O[C@@H]1C[C@@H](COP(=O)(O)OP(=O)(O)OP(=O)(O)O)O[C@H]1n1cnc2c(N)ncnc21 | Adcy2/ADCY5 C1/C2 domains | adenylyl cyclase activity, inhibitor, purified enzyme | – | added: 10 mM MnCl2, 100 µM forskolin, no Gsα-GTPγS | 1.2 ± 0.1 µM
